# Measurements gathered from unrelated publications.
# Compare with care: the assays were run in different laboratories. Several values in a cell are separate wells, animals, samples, runs or records. ± marks the error that the study gave.
# TLK1: Serine/threonine-protein kinase tousled-like 1 (TLK1, Homo sapiens, UniProt Q9UKI8)
# Sequence of UniProt Q9UKI8 (whole entry, looked up): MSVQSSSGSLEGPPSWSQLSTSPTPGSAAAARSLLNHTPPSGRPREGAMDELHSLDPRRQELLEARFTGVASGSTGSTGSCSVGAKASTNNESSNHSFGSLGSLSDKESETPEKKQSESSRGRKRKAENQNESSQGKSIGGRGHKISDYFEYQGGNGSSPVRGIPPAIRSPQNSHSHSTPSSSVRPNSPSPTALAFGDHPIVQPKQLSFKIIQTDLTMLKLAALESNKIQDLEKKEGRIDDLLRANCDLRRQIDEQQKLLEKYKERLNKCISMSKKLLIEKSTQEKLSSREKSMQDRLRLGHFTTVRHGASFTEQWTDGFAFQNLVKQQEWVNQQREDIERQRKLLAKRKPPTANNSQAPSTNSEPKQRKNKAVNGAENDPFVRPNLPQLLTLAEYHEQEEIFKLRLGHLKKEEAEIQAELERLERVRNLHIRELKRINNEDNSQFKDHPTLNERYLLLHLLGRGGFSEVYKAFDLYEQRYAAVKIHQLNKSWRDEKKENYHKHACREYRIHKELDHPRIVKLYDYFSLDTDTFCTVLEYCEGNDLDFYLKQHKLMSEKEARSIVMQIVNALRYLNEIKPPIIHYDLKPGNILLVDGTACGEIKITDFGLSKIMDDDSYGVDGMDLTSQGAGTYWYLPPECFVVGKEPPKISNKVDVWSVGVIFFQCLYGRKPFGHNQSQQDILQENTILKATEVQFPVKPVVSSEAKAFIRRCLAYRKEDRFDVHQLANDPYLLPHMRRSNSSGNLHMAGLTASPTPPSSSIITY
# Aryl hydrocarbon receptor: Aryl hydrocarbon receptor (Danio rerio, UniProt Q9YGV3)
# AHR: Aryl hydrocarbon receptor (AHR, Homo sapiens, UniProt P35869)
# Sequence of UniProt P35869 (whole entry, looked up): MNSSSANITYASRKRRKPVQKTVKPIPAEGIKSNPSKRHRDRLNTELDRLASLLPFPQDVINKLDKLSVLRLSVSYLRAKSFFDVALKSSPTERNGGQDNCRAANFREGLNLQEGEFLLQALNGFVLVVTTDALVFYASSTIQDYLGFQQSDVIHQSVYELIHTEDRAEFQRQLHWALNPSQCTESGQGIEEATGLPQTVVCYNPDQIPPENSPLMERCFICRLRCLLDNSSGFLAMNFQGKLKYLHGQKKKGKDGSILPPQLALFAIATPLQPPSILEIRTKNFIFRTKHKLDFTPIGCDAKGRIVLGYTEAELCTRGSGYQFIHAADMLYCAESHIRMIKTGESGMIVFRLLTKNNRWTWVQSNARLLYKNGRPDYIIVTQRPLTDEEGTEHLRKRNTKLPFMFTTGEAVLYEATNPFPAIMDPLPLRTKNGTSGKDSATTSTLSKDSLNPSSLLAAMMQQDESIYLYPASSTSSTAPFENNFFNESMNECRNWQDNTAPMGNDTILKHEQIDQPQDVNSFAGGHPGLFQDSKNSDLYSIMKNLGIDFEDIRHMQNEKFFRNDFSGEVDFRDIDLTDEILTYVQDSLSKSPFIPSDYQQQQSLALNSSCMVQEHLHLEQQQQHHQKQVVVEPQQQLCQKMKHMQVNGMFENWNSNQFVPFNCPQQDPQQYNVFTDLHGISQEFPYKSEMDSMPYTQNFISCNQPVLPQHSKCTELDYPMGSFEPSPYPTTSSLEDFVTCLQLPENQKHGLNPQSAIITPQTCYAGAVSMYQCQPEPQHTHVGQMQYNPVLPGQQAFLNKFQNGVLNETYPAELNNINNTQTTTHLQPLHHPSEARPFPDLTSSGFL
# SMARCA2: SWI/SNF-related matrix-associated actin-dependent regulator of chromatin subfamily A member 2 (SMARCA2, Homo sapiens, UniProt P51531)
# TOP2A: DNA topoisomerase 2-alpha (TOP2A, Homo sapiens, UniProt P11388)
# ABL1 H396P: Tyrosine-protein kinase ABL1 (ABL1, Homo sapiens, UniProt P00519, H396P)
# Sequence of UniProt P00519 (whole entry, unmodified, looked up): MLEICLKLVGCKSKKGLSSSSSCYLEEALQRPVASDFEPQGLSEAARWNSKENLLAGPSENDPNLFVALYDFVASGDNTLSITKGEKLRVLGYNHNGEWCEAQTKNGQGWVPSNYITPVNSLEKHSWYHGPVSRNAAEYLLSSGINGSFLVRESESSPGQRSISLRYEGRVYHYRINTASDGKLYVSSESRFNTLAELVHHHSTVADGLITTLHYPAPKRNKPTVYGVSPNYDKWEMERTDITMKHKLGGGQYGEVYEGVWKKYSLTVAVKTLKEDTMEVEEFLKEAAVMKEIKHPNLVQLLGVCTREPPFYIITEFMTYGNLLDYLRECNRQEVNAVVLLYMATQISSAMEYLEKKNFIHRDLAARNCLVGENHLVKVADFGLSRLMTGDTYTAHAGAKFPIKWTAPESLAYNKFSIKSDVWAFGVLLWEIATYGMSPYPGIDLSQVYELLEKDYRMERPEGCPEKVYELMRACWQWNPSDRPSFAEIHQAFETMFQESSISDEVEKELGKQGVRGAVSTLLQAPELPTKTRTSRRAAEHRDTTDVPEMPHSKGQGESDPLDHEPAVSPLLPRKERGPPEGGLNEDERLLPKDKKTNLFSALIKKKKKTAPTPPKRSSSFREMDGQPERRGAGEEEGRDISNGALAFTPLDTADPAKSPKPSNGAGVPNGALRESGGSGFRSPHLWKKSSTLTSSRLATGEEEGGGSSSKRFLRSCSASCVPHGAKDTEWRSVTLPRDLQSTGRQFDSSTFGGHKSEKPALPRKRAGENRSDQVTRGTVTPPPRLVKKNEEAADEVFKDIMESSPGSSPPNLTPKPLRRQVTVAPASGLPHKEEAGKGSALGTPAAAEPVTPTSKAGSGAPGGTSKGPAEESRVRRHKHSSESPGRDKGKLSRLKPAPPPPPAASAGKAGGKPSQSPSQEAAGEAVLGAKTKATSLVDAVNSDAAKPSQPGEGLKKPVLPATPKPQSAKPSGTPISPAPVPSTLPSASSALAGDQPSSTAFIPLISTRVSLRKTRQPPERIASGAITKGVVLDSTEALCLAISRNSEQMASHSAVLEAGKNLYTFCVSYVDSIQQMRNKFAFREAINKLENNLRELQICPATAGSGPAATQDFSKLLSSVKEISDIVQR
# SET: Protein SET (SET, Homo sapiens, UniProt Q01105)
# Sequence of UniProt Q01105 (whole entry, unmodified, looked up): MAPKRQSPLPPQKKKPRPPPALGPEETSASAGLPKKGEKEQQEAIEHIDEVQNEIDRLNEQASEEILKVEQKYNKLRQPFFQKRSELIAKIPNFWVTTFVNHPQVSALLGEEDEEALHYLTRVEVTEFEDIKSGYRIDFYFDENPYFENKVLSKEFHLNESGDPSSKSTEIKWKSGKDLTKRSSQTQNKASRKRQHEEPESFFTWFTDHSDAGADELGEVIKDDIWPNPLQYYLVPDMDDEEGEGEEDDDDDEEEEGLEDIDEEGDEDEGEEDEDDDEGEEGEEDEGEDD
# NF-kappa-B inhibitor alpha: NF-kappa-B inhibitor alpha (Homo sapiens, UniProt P25963)
# Sequence of UniProt P18669 (whole entry, looked up): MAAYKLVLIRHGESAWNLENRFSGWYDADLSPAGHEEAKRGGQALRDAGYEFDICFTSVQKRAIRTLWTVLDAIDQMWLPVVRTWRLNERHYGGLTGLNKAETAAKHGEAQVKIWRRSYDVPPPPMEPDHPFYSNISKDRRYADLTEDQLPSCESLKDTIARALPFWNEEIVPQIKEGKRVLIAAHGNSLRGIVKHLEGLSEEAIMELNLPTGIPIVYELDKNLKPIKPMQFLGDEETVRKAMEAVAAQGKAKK
# Sequence of UniProt Q16774 (whole entry, looked up): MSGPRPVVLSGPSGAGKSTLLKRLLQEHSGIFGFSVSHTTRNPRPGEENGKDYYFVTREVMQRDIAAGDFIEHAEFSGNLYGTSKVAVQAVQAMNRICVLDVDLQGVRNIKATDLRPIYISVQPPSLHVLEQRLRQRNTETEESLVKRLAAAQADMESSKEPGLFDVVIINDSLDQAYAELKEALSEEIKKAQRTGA
# Sequence of UniProt P25963 (whole entry, looked up): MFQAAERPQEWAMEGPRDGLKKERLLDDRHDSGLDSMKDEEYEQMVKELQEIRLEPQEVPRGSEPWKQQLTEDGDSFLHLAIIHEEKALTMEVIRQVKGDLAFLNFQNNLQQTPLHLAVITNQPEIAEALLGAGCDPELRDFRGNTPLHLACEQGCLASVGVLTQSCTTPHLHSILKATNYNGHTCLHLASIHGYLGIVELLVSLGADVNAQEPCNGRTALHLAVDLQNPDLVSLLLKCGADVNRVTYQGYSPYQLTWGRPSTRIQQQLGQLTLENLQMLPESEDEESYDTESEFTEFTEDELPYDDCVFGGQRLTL
# Sequence of UniProt P51575 (whole entry, unmodified, looked up): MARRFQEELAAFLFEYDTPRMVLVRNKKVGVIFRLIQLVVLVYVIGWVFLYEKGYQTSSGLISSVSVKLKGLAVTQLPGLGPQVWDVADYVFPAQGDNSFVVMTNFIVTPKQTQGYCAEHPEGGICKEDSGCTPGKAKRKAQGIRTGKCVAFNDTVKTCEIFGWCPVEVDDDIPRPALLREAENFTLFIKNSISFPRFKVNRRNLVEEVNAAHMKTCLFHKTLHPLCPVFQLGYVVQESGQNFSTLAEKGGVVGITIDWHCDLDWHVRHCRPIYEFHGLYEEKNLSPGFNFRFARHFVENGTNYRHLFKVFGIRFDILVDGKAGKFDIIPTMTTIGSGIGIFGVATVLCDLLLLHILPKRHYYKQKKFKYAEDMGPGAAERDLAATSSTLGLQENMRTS
# Sequence of UniProt Q9I4X0 (whole entry, looked up): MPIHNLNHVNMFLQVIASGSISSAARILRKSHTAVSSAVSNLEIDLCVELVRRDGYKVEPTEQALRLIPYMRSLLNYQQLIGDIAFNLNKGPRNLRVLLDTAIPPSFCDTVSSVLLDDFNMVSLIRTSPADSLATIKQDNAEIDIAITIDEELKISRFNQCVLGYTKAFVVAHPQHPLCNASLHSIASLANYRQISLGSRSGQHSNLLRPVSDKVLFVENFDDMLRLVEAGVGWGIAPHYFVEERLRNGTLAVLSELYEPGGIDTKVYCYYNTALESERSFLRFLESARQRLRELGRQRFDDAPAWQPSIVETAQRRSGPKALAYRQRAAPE
# Sequence of UniProt Q9NZD1 (whole entry, looked up): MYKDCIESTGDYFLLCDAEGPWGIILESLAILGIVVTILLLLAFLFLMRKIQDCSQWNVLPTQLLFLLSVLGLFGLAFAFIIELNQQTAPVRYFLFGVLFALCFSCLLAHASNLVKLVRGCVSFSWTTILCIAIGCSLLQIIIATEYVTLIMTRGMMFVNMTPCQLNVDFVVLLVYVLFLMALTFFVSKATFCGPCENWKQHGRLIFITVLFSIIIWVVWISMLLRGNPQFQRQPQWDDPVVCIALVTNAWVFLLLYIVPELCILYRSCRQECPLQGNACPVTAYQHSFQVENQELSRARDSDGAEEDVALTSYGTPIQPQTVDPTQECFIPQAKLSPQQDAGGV
# Sequence of UniProt Q9X6J6 (whole entry, looked up): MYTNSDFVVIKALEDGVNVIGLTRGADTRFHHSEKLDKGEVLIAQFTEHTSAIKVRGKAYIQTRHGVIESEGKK
Compound,target,assay,system,conditions,how to read,measurement,result
COc1cccc(C(=O)C#Cc2ccc(O)c(OC)c2)c1,"mvfR (Pseudomonas aeruginosa, UniProt Q9I4X0)",receptor binding,,"concentration not given, 1.5 h, with: PQS at 1:1 ratio",baseline: control,binding,84%
Nc1ncnc2c1ncn2[C@@H]1O[C@H](COP(=O)(O)CP(=O)(O)OP(=O)(O)O)[C@@H](O)[C@H]1O,"P2X purinoceptor 1 (P2RX1, Homo sapiens, UniProt P51575, D97A)",saturation binding,,1 nM,,specific binding,212 corrected cpm and 156 corrected cpm
CC[C@@H]1[C@H](F)C(=O)N[C@@H]1COc1nccc2cc(C(N)=O)c(OC)cc12,TLK1,"ATP-site probe binding, ActivX profiling",THP-1 cell lysate,"0.2 mM, Lys2 site",,inhibition,9.2%
Cn1c2c(Cl)c(Cl)ccc2c2cn[nH]c(=O)c21,"Serine/threonine-protein kinase VRK3 (VRK3, Homo sapiens, UniProt Q8IV63)","thermal stability, thermal shift",,10 µM,higher = stronger binding,delta Tm,-0.1 °C
N[C@@H](Cc1c[nH]c2ccccc12)C(=O)O,"Transcription attenuation protein MtrB (mtrB, Geobacillus stearothermophilus, UniProt Q9X6J6)",isothermal titration calorimetry,,"concentration not given, 25 °C, one-site model",,binding stoichiometry,11.05 ± 0.03
CCN1CCC[C@H]1CNC(=O)c1c(O)c(Cl)cc(Cl)c1OC,"G-protein coupled receptor family C group 5 member D (GPRC5D, Homo sapiens, UniProt Q9NZD1)","β-arrestin recruitment, TANGO luminescence, refers to: GPRC5D",,concentration not given,baseline: basal luminescence,log2 fold change,0.377
N#Cc1ccc(C[C@H](Nc2ncc(-c3ccc(F)cc3)o2)C(=O)N2CCc3ccccc32)cc1,"FPR2 (Homo sapiens, UniProt P25090)",cell-based,,concentration not given,,activity,inactive
CC(=O)OCc1nn(C)c2nc(N)[nH]c(=O)c2c1=O,"folP (Bacteria, UniProt P0AC13)",CETSA HiBiT,"Escherichia coli, whole cells",concentration not given,baseline: DMSO,melting temperature shift,7.41 °C
C=CC(=O)N1CCC(COCC(=O)N2CCN(c3nc(-c4cnc(N)nc4C(F)F)nc(N4CCOC[C@@H]4C)n3)CC2)CC1,TLK1,KINOMEscan,,1 µM,,remaining binding,89%
Cc1cc2ccccc2c2ccc3ccccc3c12,Aryl hydrocarbon receptor,"reporter gene, agonist, luciferase reporter",ZF-4,30000 µM,baseline: vehicle control,fold change,5.22
CN1CCN(c2ccc(Nc3nccc(-c4cccc([N+](=O)[O-])c4)n3)cc2C(F)(F)F)CC1,"ABL1 (Homo sapiens, UniProt P00519, F317I)",,,10 µM,,percent of control,100% and 55%
COC(=O)c1csc(C(=O)c2c[nH]c3ccccc23)n1,AHR,"reporter gene, agonist, XRE luciferase reporter",HepG2,unit not given,baseline: vehicle,Emax,54 ± 3
Cc1ncsc1-c1ccc(CNC(=O)[C@@H]2C[C@@H](O)CN2C(=O)[C@@H](NC(=O)C2(F)CC2)C(C)(C)C)c(OCCOc2ccc(CN3CCN(c4cc(-c5ccccc5O)nnc4N)CC3)cc2)c1,SMARCA2,"ternary complex binding, AlphaLISA competition",HEK293 cell lysate,with: full-length VCB,baseline: binary IC50 over ternary IC50,cooperativity factor alpha,0.9
O=c1nc(SCc2cc(F)cc(C(F)(F)F)c2)nc(SCc2ccc3nc(Cl)ccc3c2)[nH]1,TOP2A,DNA relaxation,,"15.6 µM, replicate 2",,relaxed DNA,98.9%
[Cl-].[Na+],"GUK1 (Homo sapiens, UniProt Q16774)","enzyme activity, NADH-coupled",,1.875 mM,,reaction velocity,0.0129 µM/s and 0.0137 µM/s and -0.00441 µM/s
F[C@@H]1CCN(c2nccc(-c3cnn4ncccc34)n2)C1,ABL1 H396P,KINOMEscan,,1 µM,,remaining binding,72% and 100%
O=C(O)C1CCCNC1 (centres unmarked),"SLC6A6 (Homo sapiens, UniProt P31641, G62A)","binding, microscale thermophoresis",,"1 mM, room temperature, with: 50 nM labelled protein",higher = more binding,normalised MST signal,0.53
CCCCCCCCCCCCC/C=C/[C@@H](O)[C@H](CO)NC(=O)CCCCCCCCCCCCCCC,"Protein SET (SET, Homo sapiens, UniProt Q01105, K222D)","lipid binding, GFP pull-down LC-MS/MS",A549 overexpressing GFP-tagged protein,,baseline: eluate plus flow-through,lipid fraction bound,4%
O=C(CCCc1ccccc1)C(=O)NCCc1ccc(Oc2ccc(C(F)(F)F)cn2)cc1,"Carboxylesterase 1D (Mus musculus, UniProt Q8VCT4)","inhibitor, refers to: CES1D","mouse, WAT cytosol proteome",10 µM,"baseline: DMSO, lower = stronger inhibition",probe-enriched protein abundance,242000 a.u.
O=c1nc(SCc2cc(F)cc(C(F)(F)F)c2)nc(SCc2csc3ccc(Cl)cc23)[nH]1,TOP2A,DNA cleavage,,"15.6 µM, replicate 1",,linear DNA,3.91%
COc1cc(Nc2ncc3c(n2)-c2ccc(Cl)cc2C(c2c(F)cccc2OC)=NC3)ccc1C(=O)O,FGFR1,kinase activity,,1 µM,,remaining activity,18%
Cc1cnn2ncc(-c3ccnc(N(C)C)n3)c2c1,ABL1 H396P,KINOMEscan,,1 µM,,remaining binding,97%
CCCCCCCCCCCCC/C=C/[C@@H](O)[C@H](CO)NC(=O)CCCCCCCCCCCCCCCCCCCCC,SET,"lipid binding, GFP pull-down LC-MS/MS",A549 overexpressing GFP-tagged protein,unit not given,baseline: vector-transfected cells,bound endogenous lipid,5.2
C=CC(=O)N1CCC[C@@H](n2nc(-c3ccc(Oc4ccccc4)cc3)c3c(N)ncnc32)C1,"Elongation factor 1-beta (Homo sapiens, UniProt P24534)",,,0.1 µM,,remaining activity,28.4%
O=c1c(Oc2ccccc2)c(C(F)(F)F)oc2cc(O)ccc12,"Cullin-1, C-terminal domain with ROC1 (Homo sapiens, UniProt Q13616)",inhibitor,,up to 80 µM,,E3 ligase activity,no inhibition
CCCCCCCCCCCCC/C=C/[C@@H](O)[C@H](CO)NC(=O)CCCCCCCCCCCCCCCCCCC,SET,"lipid binding, GFP pull-down LC-MS/MS",A549 overexpressing GFP-tagged protein,ER-targeted construct,baseline: eluate plus flow-through,lipid fraction bound,14%
O=C(Nc1cccc2[nH]ccc12)c1ccccc1Cl,"Alpha-synuclein (SNCA, Homo sapiens, UniProt P37840)",ThT kinetics,,"concentration not given, with: SNCA 2 µM",,fibril formation,inhibited
O=C1/C(=N/Nc2ccc(S(=O)(=O)O)cc2)C(c2ccc([N+](=O)[O-])cc2)=NN1c1ccccc1,"UBASH3B (Homo sapiens, UniProt Q8TF42)",enzyme activity,,with: OMFP,,maximum inhibition,~70%
c1coc(-c2n[nH]cc2-c2ccnc3ccccc23)c1,"Serine/threonine-protein kinase STE7 homolog (HST7, Candida albicans, UniProt Q5A6T5)","kinase binding, MIB/MS competition",Candida albicans lysate,10 µM,"baseline: DMSO, negative = stronger binding",log2 fold change,0.04
Cc1cccc2c1ccc1cc(C(C)C)ccc12,Aryl hydrocarbon receptor,"reporter gene, agonist, luciferase reporter",ZF-4,3333.33 µM,baseline: vehicle control,fold change,0.916
CC[C@H](C)[C@H](NC(=O)[C@H](CCCNC(=N)N)NC(=O)[C@H](Cc1c[nH]cn1)NC(=O)[C@H](CCCNC(=N)N)NC(=O)[C@H](CC(=O)O)NC(=O)[C@H](CC(=O)O)NC(=O)[C@@H](NC(=O)[C@H](CC(=O)O)NC(=O)[C@@H]1CCCN1C(=O)[C@@H](N)CC(C)C)[C@@H](C)O)C(=O)N[C@@H](CCC(=O)O)C(=O)N[C@@H](CCC(=O)O)C(=O)N[C@@H](CCCCN)C(=O)N[C@@H](CCCNC(=N)N)C(=O)N[C@@H](CCCCN)C(=O)N[C@@H](CCCNC(=N)N)C(=O)N[C@H](C(=O)N[C@@H](Cc1ccc(O)cc1)C(=O)N[C@@H](CCC(=O)O)C(=O)N[C@H](C(=O)N[C@@H](Cc1ccccc1)C(=O)N[C@@H](CCCCN)C(=O)N[C@@H](CO)C(=O)N[C@@H](C)C(=O)N[C@@H](CCSC)C(=O)N[C@@H](CCCCN)C(=O)N[C@@H](CCCCN)C(=O)N[C@@H](CO)C(=O)N1CCC[C@H]1C(=O)N[C@@H](Cc1ccccc1)C(=O)N[C@@H](CC(N)=O)C(=O)NCC(=O)N1CCC[C@H]1C(=O)O)[C@@H](C)O)[C@@H](C)O,NF-kappa-B inhibitor alpha,"binding, ITC",,"pH 7.5, 293 K, 50 mM NaCl",,-TΔS,-1.1 ± 0.01 kcal/mol
CN(c1nccc(-c2cnn3ncccc23)n1)C1CC1,ABL1 H396P,,,1 µM,baseline: DMSO control,remaining binding,100%
C[C@@H](c1ccc(-n2cnc3c(N)ncnc32)cc1)N1CCc2nn(C)c(Cc3ccccc3)c2C1=O,"NUAK2 (Homo sapiens, UniProt Q9H093)",KINOMEscan,,0.1 µM,baseline: DMSO control,remaining binding,78%
Nc1nnc(-c2ccccc2O)cc1N1CCN(Cc2ccc(OCCOCCNc3cccc4c3C(=O)N(C3CCC(=O)NC3=O)C4=O)c(F)c2)CC1 (centres unmarked),SMARCA2,"degrader, immunoblot",SMARCA4-mutant lung cancer cells,"96 h, median of twelve cell lines",,Dmax,94%
Cc1cccc2c1ccc1ccccc12,AHR,"reporter gene, agonist, yeast LacZ reporter",Saccharomyces cerevisiae,,,maximum response,120 LacZ units
CC[C@H](C)[C@H](NC(=O)[C@H](CCCNC(=N)N)NC(=O)[C@H](Cc1c[nH]cn1)NC(=O)[C@H](CCCNC(=N)N)NC(=O)[C@H](CC(=O)O)NC(=O)[C@@H](N)CC(=O)O)C(=O)N[C@@H](CCC(=O)O)C(=O)N[C@@H](CCC(=O)O)C(=O)N[C@@H](CCCCN)C(=O)N[C@@H](CCCNC(=N)N)C(=O)N[C@@H](CCCCN)C(=O)N[C@@H](CCCNC(=N)N)C(=O)N[C@H](C(=O)N[C@@H](Cc1ccc(O)cc1)C(=O)N[C@@H](CCC(=O)O)C(=O)N[C@H](C(=O)N[C@@H](Cc1ccccc1)C(=O)N[C@@H](CCCCN)C(=O)N[C@@H](CO)C(=O)N[C@H](C(=O)N[C@@H](CCSC)C(=O)N[C@@H](CCCCN)C(=O)N[C@@H](CCCCN)C(=O)N[C@@H](CO)C(=O)N1CCC[C@H]1C(=O)N[C@@H](Cc1ccccc1)C(=O)N[C@@H](CC(N)=O)C(=O)NCC(=O)N1CCC[C@H]1C(=O)O)[C@@H](C)CC)[C@@H](C)O)[C@@H](C)O,NF-kappa-B inhibitor alpha,"binding, ITC",,"293 K, 150 mM NaCl",,ΔG,-8.2 ± 0.3 kcal/mol
CC(=C/C(=O)O)/C=C/C=C(\C)C1C=C2C(C)(C)CCCC2(C)O1 (centres unmarked),"Rhodopsin (RHO, Homo sapiens, UniProt P08100, T17M)","ER retention, immunostaining co-localization, refers to: opsin with calnexin",COS-7 transfected T17M,50.00 µM,,Pearson correlation coefficient,0.46
CN1C(=O)/C(=C2\Nc3ccccc3\C2=N/O)c2ccc(Br)cc21,Aryl hydrocarbon receptor,"reporter gene, agonist, luciferase reporter",ZF-4,0.032 µM,baseline: vehicle control,fold change,7.11
O=C(COP(=O)(O)O)[C@@H](O)[C@H](O)[C@H](O)COP(=O)(O)O,"Phosphoglycerate mutase 1 (Homo sapiens, UniProt P18669)",activator,,"0.07812 mM, wild-type enzyme, unit not given",relative to no compound,enzyme activity,1.41 and 1.33
F[C@@H]1CCN(c2ccc(-c3ccc4sc(-c5cccnc5)cc4n3)cn2)C1,"Alpha-synuclein, aggregates (SNCA, Homo sapiens, UniProt P37840)",[3H] homologous binding,human PD brain homogenate,with: [3H]compound,,Bmax,55 ± 9 nM
O=C(CNc1cccc2c1C(=O)N(C1CCC(=O)NC1=O)C2=O)NCCCCCCN1CCc2c(c3ccccc3n2Cc2ccc(C(=O)NO)cc2)C1 (centres unmarked),"HDAC6 (Homo sapiens, UniProt Q9UBN7)","degrader, western blot",MM1.S,"5 µM, 24 h",,degradation,96%
Nc1ccc2ccc3cccc4ccc1c2c34,Aryl hydrocarbon receptor,"reporter gene, agonist, luciferase reporter",ZF-4,4.572 µM,baseline: vehicle control,fold change,1.21
O=C(O)c1ccc(Nc2ncc3c(n2)-c2ccc(Cl)cc2C(c2c(F)cccc2F)=NC3)cc1,human IRAK1(h),kinase activity,,1 µM,,remaining activity,110%
CCCCC[S+]([O-])c1n[nH]c(N)n1 (centres unmarked),"DDB1- and CUL4-associated factor 7 (Homo sapiens, UniProt P61962)","binding, affinity selection mass spectrometry",,,baseline: other proteins in batch,fold enrichment,0.896

# Some of these lines once more:
Compound,target,assay,system,conditions,how to read,measurement,result
CC(=C/C(=O)O)/C=C/C=C(\C)C1C=C2C(C)(C)CCCC2(C)O1 (centres unmarked),"Rhodopsin (RHO, Homo sapiens, UniProt P08100, T17M)","ER retention, immunostaining co-localization, refers to: opsin with calnexin",COS-7 transfected T17M,50.00 µM,,Pearson correlation coefficient,0.46
Cc1cnn2ncc(-c3ccnc(N(C)C)n3)c2c1,ABL1 H396P,KINOMEscan,,1 µM,,remaining binding,97%
CC[C@@H]1[C@H](F)C(=O)N[C@@H]1COc1nccc2cc(C(N)=O)c(OC)cc12,TLK1,"ATP-site probe binding, ActivX profiling",THP-1 cell lysate,"0.2 mM, Lys2 site",,inhibition,9.2%
CN1C(=O)/C(=C2\Nc3ccccc3\C2=N/O)c2ccc(Br)cc21,Aryl hydrocarbon receptor,"reporter gene, agonist, luciferase reporter",ZF-4,0.032 µM,baseline: vehicle control,fold change,7.11
Cc1ncsc1-c1ccc(CNC(=O)[C@@H]2C[C@@H](O)CN2C(=O)[C@@H](NC(=O)C2(F)CC2)C(C)(C)C)c(OCCOc2ccc(CN3CCN(c4cc(-c5ccccc5O)nnc4N)CC3)cc2)c1,SMARCA2,"ternary complex binding, AlphaLISA competition",HEK293 cell lysate,with: full-length VCB,baseline: binary IC50 over ternary IC50,cooperativity factor alpha,0.9
